Experimental data collected from several papers.
Each numbered part is a random draw from the data of one study; scales do not carry over between parts. Positions count from the first letter of the parent shown.

Set 1 — method: universal PBM; molecule type: double-stranded DNA, one strand shown; medium: in vitro; concentration: not given; reading: higher = stronger binding
Target: Sal-like protein 4, full length isoform B (SALL4, Homo sapiens, UniProt Q9UJQ4-2, residues 1-616)
Notes: 8-mer, flanks averaged, mean of replicates
| Strand | E-score |
| --- | --- |
| GCGAACCC | -0.217 |
| GAACCATA | 0.0969 |
| GGGCGTAC | -0.114 |
| AGCTTTAT | 0.0708 |
| AAGGCCGG | -0.191 |
| AATTGGGT | 0.206 |
| CGGGACCG | -0.291 |
| CTGGGAAG | -0.167 |
| AGGTACCG | -0.255 |
| AACGCCCG | -0.105 |
| AAAACGCC | -0.0132 |
| CAGCCTTC | -0.237 |
| CCGGCACG | -0.247 |
| ATTGCGTA | 0.109 |
| AGAGTTCC | -0.295 |
| GCATATCC | 0.094 |
| GGCGTGAA | -0.092 |
| CAGTGTCC | -0.174 |
| ATTGAAGC | 0.215 |

Set 2 — method: DHFR PCA, deep sequencing; medium: yeast; with: (+)-ABA 58 µM; reference: wild-type fitted maximum; reading: higher = stronger binding
Target: ABI1, truncated, D143A, DHFR fusion (Arabidopsis thaliana)
Notes: methotrexate growth selection, single substitutions
Parent: PYL1, truncated, DHFR fusion (Arabidopsis thaliana); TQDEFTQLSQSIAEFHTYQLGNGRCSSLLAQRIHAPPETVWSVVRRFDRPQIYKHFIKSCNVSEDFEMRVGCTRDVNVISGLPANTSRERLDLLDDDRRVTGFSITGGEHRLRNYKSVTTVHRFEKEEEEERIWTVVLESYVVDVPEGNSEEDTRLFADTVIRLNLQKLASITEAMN
| Substitution | relative binding score |
| --- | --- |
| L112R | -3.93% |
| L156S | 81.5% |
| V70W | 14.7% |
| T101D | -7.74% |
| R69C | 82.8% |
| N149Y | 17.9% |
| L20Y | 85.6% |
| R49N | 76.2% |
| K168C | 79.7% |
| Y18P | 88.8% |
| L20I | 89.4% |
| F15E | 30.6% |
| G21W | 77.3% |
| E67I | 86.6% |
| D3I | 86.1% |

Set 3 — method: protein-binding microarray; molecule type: double-stranded DNA, one strand shown; medium: in vitro; concentration: 940 nM top; notes: 60-bp whole probe; with: salmon DNA 0.4 mg/ml; reference: random background probes; reading: higher = stronger binding; all sequences stand within: GCCTAGCAC … GTCTTGATTCGCTTGACGCTGCTG
Target: Interferon regulatory factor 5, full length, phosphomimetic (IRF5, Homo sapiens, UniProt Q13568-2, residues 1-514, S451D/S453D/S456D/S462D)
| Strand | fitted relative affinity [z-score] |
| --- | --- |
| TTAGGTCTCCTTATCCTCTAGTGCTAG | 0.291 |
| TTAGGTATCCGACTGGGTTAGTGCTAG | -0.151 |
| GACGGACTGGGTCTCGCGACGTGCTAG | -0.481 |
| TCAGATATCGGGACTGGATTAGTGCTA | -0.309 |
| CTTCCCCTCTAGGTTCTCTGAGTGCTA | 0.299 |
| TTAGATATCGGGTAGCGATTAGTGCTA | 0.244 |
| GACGAACTGGAGTTTCGAGACGTGCTA | 1.94 |
| GAGGGTTCCGGTTTCGGGACGTGCTAG | 4.53 |
| ACGAGTTTCCATTTTCTGAAGTGCTAG | 2.19 |
| TGGTATTTTTTTGTAATCGAGTGCTAG | 1.15 |
| GACGGTTACCTTTTCCTGACGTGCTAG | 0.59 |
| TCAAGTCTGGGAGATGAAACTGTGCTA | -0.238 |
| GACGGATTGGGGTATCGGGACGTGCTA | 0.743 |
| GACCGTATCGGTTTCGGGACGTGCTAG | 7.26 |
| TCACAATTTGCTTTAGTACTGTGCTAG | 0.644 |
| GACGATTTCCGGTATCGAGACGTGCTA | 2.21 |
| TCAAGTTGGACCTCTCAGACTGTGCTA | -0.474 |
| GACGCTTTCCTACTGCTGACGTGCTAG | 0.879 |
| TTAGGTATCGGTTTCCGTTAGTGCTAG | 10.4 |

Set 4 — target: CCNE1, cyclin fold, Cln2 fusion (human); method: yeast growth competition, sequencing; medium: yeast; notes: strong parent motif; reference: not given; reading: higher = stronger binding
Parent: INSM1 docking peptide (human); PKAIRKLHFEDEV; partner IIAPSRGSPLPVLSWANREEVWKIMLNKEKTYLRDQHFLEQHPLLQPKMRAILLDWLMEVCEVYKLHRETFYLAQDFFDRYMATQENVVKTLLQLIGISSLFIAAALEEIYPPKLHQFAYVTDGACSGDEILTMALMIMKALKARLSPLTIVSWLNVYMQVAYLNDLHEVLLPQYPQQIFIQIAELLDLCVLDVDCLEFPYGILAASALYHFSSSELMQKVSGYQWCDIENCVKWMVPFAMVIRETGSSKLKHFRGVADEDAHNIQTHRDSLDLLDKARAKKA
| Substitution | normalised enrichment score |
| --- | --- |
| PIAIRKLHFEDEV [K2I] | 2.91 |
| PKAIRKLHAEDEV [F9A] | -0.622 |
| PKAIRWLHFEDEV [K6W] | 3.65 |
| PKAIRKLHNEDEV [F9N] | 0.0393 |
| PKWIRKLHFEDEV [A3W] | 2.6 |
| PKLIRKLHFEDEV [A3L] | 0.661 |
| PKAIRKLHFEDFV [E12F] | 3.97 |
| PKAIRKSHFEDEV [L7S] | 0.0447 |
| PKAIRKLHFEHEV [D11H] | 2.56 |
| PKAIRKLHFEVEV [D11V] | 3.07 |
| PKAIRKWHFEDEV [L7W] | -0.0448 |
| PRAIRKLHFEDEV [K2R] | 4.75 |
| PKAIRKLHFEGEV [D11G] | 3.03 |
| PKAIHKLHFEDEV [R5H] | 0.22 |
| PKAIRKLHFEIEV [D11I] | 3.37 |

Set 5 — method: RNA Bind-n-Seq; molecule type: RNA; medium: in vitro; concentration: 365 nM; reference: no-protein control; reading: higher = stronger binding
Target: RNA binding protein fox-1 homolog 2, RRM domain, GST-SBP tag (RBFOX2, Homo sapiens, UniProt O43251-10, residues 100-194)
Notes: natural RNA segment, single round, ends assumed
All sequences stand within: GGGAGUUCUACAGUCCGACGAUC … UGGAAUUCUCGGGUGCCAA
Residues (chain): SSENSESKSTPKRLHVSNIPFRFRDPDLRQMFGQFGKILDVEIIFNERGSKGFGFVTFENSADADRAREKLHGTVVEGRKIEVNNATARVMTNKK
| Strand | RBNS enrichment (R) |
| --- | --- |
| UUUGUACUUGCCAUAGAUGUAACCUAAAAAGUUUUGGCAUAUUUAGGUCAGCCUAGCGGAACUUUUUUUUUCAUUUAAAUGGAGCUGAAUAAUGGAGAUUUUGUGUCUGC | 0.377 |
| GCUUUUUCUGGCAGCCAGAAGCCAAUGCUUAUGCAGGCUCCCGCAUCUCAGCCAGAGGCCAGAUGUUCUUAGAACUGACUUGACCUGAGCAGACCCCCUAACCCUUCAGA | 0.282 |
| UCACCUUCACCAUGGGCUUCCUGGGUGCGCGGGCCUGAGCGCAGGUUGUUUUGUACAUAUUGGAAUAUGUGUUAACUUAUGCCCCGCAUCCCAACUCACACGGAAGCACG | 0.73 |
| GCCUUAUUGAAUAGGUCACUAUUAAAUUCCUUUAAAUGUUGAUAUCUGCCAUUUGUGGAAACAACGUAAAUUCUACUUAAGUGUAAACAAGGCAAGCCUCAGACCAGCAA | 0.314 |
| CUGUCAAAUCUGUCAUUGCAUAUGCCAUCGUUUUCUAGCAAAAUCCCAUGAUUGGCUAUAAACGUUUUGUAAGAAGUCACUCUCCUUGAAAAUACUGAACAUAGCUGUAU | 0.237 |
| GUGUGUCUCAGCUGUGUUUAUGAAUUUGUUUGGUUCACACAUAUCUGAGUGGUAUGGAUAACUGGGCAUCUCUAACCCAGGGCAAUCAGUAAGAACUAAUAACCUGUGUC | 0.498 |
| GCUGACUGGAUCCACUCAUCAAUUCUUCGUCCCCACUACUAAGACUGGGCAUGUUUUGCUGGUGUGGUCUCUGCACUUCAGGAAUGGUCACAACAGGGGGUAGCCCUCAA | 1.97 |
| CCUCCCCAGGCACCACUACCACCUGACAAAAAUGAAAAGUCUUAAGAAAAUCCUCCCAGGAGAACAUGGAGUCUUAGAGAUCUGGAAGAGAUCGGAGUUUGACUAGGUUU | 0.752 |
| AUGCCUGCUGCCUGCCUCUCUCCUAACAUGGUUCCAUCAAGUAGACACCCUUUGUAUUUGACCUCUUCCCAGUUCCUGCCCUGUUUCUGUAUCUUUACUUGAAAGUUGGG | 2.71 |
| CCCACAGAACCUAAUCUGAACAAUCCCCGAUGAUUCCCUCUGCUUUUUGAAUGCUUCCAAGACUUAUCAUGAAAACUGUCAAUGGAUAAUCAUUUCCUGCUGACUUUGCA | 0.769 |
| CAGAAGAACCCUUAGUGUCCACCUGGCCCUAUGUUUCCCAGAAUUCAAGCGGAAAACAUCUGAGAAUGGCUUUCCCAUAUUGCAUUACGGCAUGCAGAAGGCUUUAUUUU | 0.481 |
| ACCCUGUGCUCCUCUGGCCAGCUCUGGAGGAAUCCUCAUCCAUCAUUACCACACCCUUCCCAGGGACCAGCACCUUUAAGCACUCCAGGGCCUUGAGGGAAUAAGGGGCC | 0.502 |

Set 6 — target: ATF7, bZIP domain (human); method: DHFR protein complementation; medium: yeast; reference: wild-type JUN-FOS pair; reading: higher = stronger binding
Notes: single substitutions, most at no-binding floor
Parent: JUN, bZIP domain (human); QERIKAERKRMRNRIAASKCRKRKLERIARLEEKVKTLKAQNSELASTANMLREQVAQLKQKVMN; partner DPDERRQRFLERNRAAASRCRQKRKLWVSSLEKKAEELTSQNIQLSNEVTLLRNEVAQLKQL
| Substitution | binding fitness [natural log] |
| --- | --- |
| S47Q | -0.84 |
| E54K | -1.1 |
| L31Y | -1.38 |
| S43A | -0.668 |
| Q55V | -0.984 |
| A29F | -0.905 |
| S47V | -0.799 |
| A46I | -0.895 |
| A40M | -0.991 |
| T48V | -0.949 |
| A46L | -0.841 |
| T37D | -0.884 |
| L38I | -1.36 |
| Q55S | -1.37 |
| V35E | -1.57 |

Some of these lines once more (set 5):
| Strand | RBNS enrichment (R) |
| --- | --- |
| GCUUUUUCUGGCAGCCAGAAGCCAAUGCUUAUGCAGGCUCCCGCAUCUCAGCCAGAGGCCAGAUGUUCUUAGAACUGACUUGACCUGAGCAGACCCCCUAACCCUUCAGA | 0.282 |
| UCACCUUCACCAUGGGCUUCCUGGGUGCGCGGGCCUGAGCGCAGGUUGUUUUGUACAUAUUGGAAUAUGUGUUAACUUAUGCCCCGCAUCCCAACUCACACGGAAGCACG | 0.73 |
| GCCUUAUUGAAUAGGUCACUAUUAAAUUCCUUUAAAUGUUGAUAUCUGCCAUUUGUGGAAACAACGUAAAUUCUACUUAAGUGUAAACAAGGCAAGCCUCAGACCAGCAA | 0.314 |
| CUGUCAAAUCUGUCAUUGCAUAUGCCAUCGUUUUCUAGCAAAAUCCCAUGAUUGGCUAUAAACGUUUUGUAAGAAGUCACUCUCCUUGAAAAUACUGAACAUAGCUGUAU | 0.237 |
| GUGUGUCUCAGCUGUGUUUAUGAAUUUGUUUGGUUCACACAUAUCUGAGUGGUAUGGAUAACUGGGCAUCUCUAACCCAGGGCAAUCAGUAAGAACUAAUAACCUGUGUC | 0.498 |
| GCUGACUGGAUCCACUCAUCAAUUCUUCGUCCCCACUACUAAGACUGGGCAUGUUUUGCUGGUGUGGUCUCUGCACUUCAGGAAUGGUCACAACAGGGGGUAGCCCUCAA | 1.97 |
| CCUCCCCAGGCACCACUACCACCUGACAAAAAUGAAAAGUCUUAAGAAAAUCCUCCCAGGAGAACAUGGAGUCUUAGAGAUCUGGAAGAGAUCGGAGUUUGACUAGGUUU | 0.752 |
| AUGCCUGCUGCCUGCCUCUCUCCUAACAUGGUUCCAUCAAGUAGACACCCUUUGUAUUUGACCUCUUCCCAGUUCCUGCCCUGUUUCUGUAUCUUUACUUGAAAGUUGGG | 2.71 |
| CCCACAGAACCUAAUCUGAACAAUCCCCGAUGAUUCCCUCUGCUUUUUGAAUGCUUCCAAGACUUAUCAUGAAAACUGUCAAUGGAUAAUCAUUUCCUGCUGACUUUGCA | 0.769 |
